Published values gathered from unrelated publications.
Each line is one published result; not all experiments were run side by side.
Organism: Klebsiella pneumoniae

For `Cc1onc(-c2ccccc2)c1C(=O)N[C@@H]1C(=O)N2[C@@H]1SC(C)(C)[C@@H]2C(=O)O`, the MIC was > 512 µg/mL (DOU CTX-M-15, Mueller Hinton broth; overnight, 37 °C).
`O=C(Cc1ccccc1)N[C@@H]1C(=O)N2C(C(=O)O)=C(CSc3cccc4cccnc34)CS(=O)(=O)[C@H]12` has an MIC of > 128 µg/mL (N11-2218).
The MIC of `O=C(N[C@H](CO)[C@H](O)c1ccc([N+](=O)[O-])cc1)C(Cl)Cl` is reported as 1 µg/mL (broth microdilution; ATCC 43816 acrAB knockout).
`Cc1cc(-c2cn[nH]c2-c2cccc(OCc3cccc(C#N)c3)c2)cc(C)n1` gave an MIC of 1 µg/mL (CLSI broth microdilution; AR-0040).
With `CCn1cc(C(=O)O)c(=O)c2cc(F)c(N3CCNCC3)cc21` the MIC was 8 µg/mL (broth microdilution; KP; 18 h).
For `N=C(N)c1ccc(OCc2ccc(-c3ccccc3)cc2COc2ccc(C(=N)N)cc2)cc1`, the MIC was > 200 µg/mL (ATCC 13883; compound alone).
`O=C(O)c1ccc(NCc2cccc(O)c2O)cc1` gave an MIC of 256 µg/mL (broth microdilution).
The MIC of `CO/N=C(\C(=O)N[C@@H]1C(=O)N2C(C(=O)O)=C(COC(C)=O)CS[C@H]12)c1csc(N)n1` is reported as 128 µg/mL (broth microdilution; NCTC 13438; 24 h, ambient air).
The MIC of `Cc1c(CN(C)C(=O)/C=C/c2cnc3c(c2)CC(NC(=O)OC(C)(C)C)C(=O)N3)oc2ccccc12` (stereo not drawn) is reported as > 32 µg/mL (broth microdilution; AR-0139).
The MIC of `CC1(C)S[C@@H]2[C@H](NC(=O)[C@H](N)c3ccccc3)C(=O)N2[C@H]1C(=O)O` is reported as > 400 µM (broth microdilution; clinical isolate, Mueller-Hinton broth; 24 h, 37 °C).
With `O=C(O)c1ccc(NCc2cccc(C(F)(F)F)c2)cc1` the MIC was 256 µg/mL (broth microdilution).
`CN(C)[C@@H]1C(O)=C(C(N)=O)C(=O)[C@@]2(O)C(O)=C3C(=O)c4c(O)cccc4[C@@](C)(O)[C@H]3C[C@@H]12` has an MIC of 2 µg/mL (broth microdilution; ATCC 43816 acrAB knockout).
The MIC of `C[C@@H](O)[C@H]1C(=O)N2C(C(=O)O)=C(SCCN=CN)C[C@H]12` is reported as > 64 µg/mL (broth microdilution; BNCC 359393).
`Cc1cc(NS(=O)(=O)c2ccc(N)cc2)no1` gave an MIC of > 512 µg/mL (broth microdilution; NCTC 13438; 24 h, ambient air).
For `CC1(C)S[C@@H]2[C@H](NC(=O)[C@H](N)c3ccccc3)C(=O)N2[C@H]1C(=O)O`, the MIC was 4 µg/mL (ALE CTX-M-15, Mueller Hinton broth; overnight, 37 °C).
For `NC(=O)[C@@H]1CC[C@@H]2CN1C(=O)N2OS(=O)(=O)O`, the MIC was 16 µg/mL (17-15 ESBL; compound alone).
For `N=C(N)c1ccc(OCc2cc(COc3ccc(C(=N)N)cc3)cc(-c3ccccc3)c2)cc1`, the MIC was > 200 µg/mL (ATCC 13883; compound alone).
With `Cc1c(CN(C)C(=O)/C=C/c2cnc3c(c2)CCC(=O)N3)oc2ccccc12` the MIC was > 32 µg/mL (broth microdilution; AR-0066).

Excerpt of the above:
For `CC1(C)S[C@@H]2[C@H](NC(=O)[C@H](N)c3ccccc3)C(=O)N2[C@H]1C(=O)O`, the MIC was 4 µg/mL (ALE CTX-M-15, Mueller Hinton broth; overnight, 37 °C).
